Results from different studies.
± marks the error that the study gave.

| SMILES | test | system | setting | scale | endpoint | result |
| --- | --- | --- | --- | --- | --- | --- |
| C[C@]12CC[C@H](O)CC1CCC1C2[C@H](O)C(=O)[C@]2(C)[C@@H](c3ccc(=O)oc3)CC[C@]12O (stereo partly drawn) | sulfation, substrate | guinea pig liver cytosol | pH 7.4 |  | CLint | 0.88 µL/min/mg |
| CCCCCCCC/C=C\CCCCCCCCOP(O)(O)=S.N |  | mouse, male, irradiated | sc, dose not given, 15.6 Gy partial-body, dosed 24 h after |  | AUC(0-inf) | 1.72 µg·h/mL |
| CC[C@H](C)[C@H](NC(=O)[C@H](Cc1c[nH]c2ccccc12)NC(=O)[C@H](CCCCN)NC(=O)[C@@H](NC(=O)[C@H](CC(C)C)NC(=O)[C@H](CCCCN)NC(=O)CNC(=O)[C@@H](NC(=O)[C@@H](NC(=O)[C@H](CO)NC(=O)[C@@H](NC(=O)[C@@H](NC(=O)[C@H](CCCCN)NC(=O)[C@H](CCC(N)=O)NC(=O)[C@H](C)NC(=O)[C@H](CCSC)NC=O)[C@@H](C)CC)[C@@H](C)CC)[C@@H](C)O)[C@@H](C)CC)C(C)C)C(=O)N[C@H](C(=O)N[C@@H](CCCCN)C(=O)N[C@H](C(=O)N[C@H](C(=O)N[C@@H](CC(N)=O)C(=O)N[C@@H](CCCCN)C(=O)N[C@@H](Cc1ccccc1)C(=O)N[C@H](C(=O)N[C@@H](CCCCN)C(=O)N[C@@H](CCCCN)C(=O)O)[C@@H](C)O)C(C)C)[C@@H](C)O)[C@@H](C)CC (racemic) | circular dichroism | phosphate buffer 10 mM | 1 to 5 µM, pH 7.5, approximate |  | helicity | ~20% |
| C[C@H](NCc1ccc(-c2ccc(C(F)(F)F)cc2)cc1)C(N)=O | metabolic stability | human, liver microsomes | 1 µM, 30 min, pH 7.4 |  | compound remaining | 92% |
| CCNc1cc2[o+]c3cc(NCC)c(C)cc3c(-c3ccccc3C(=O)OCCOCC[18F])c2cc1C |  | rat | 120 min | relative to: heart over blood | tissue uptake ratio | 29.5 |
| CCCCCCCCCCCCC(=O)O.O=C1CCCC2C3CCCN4CCCC(CN12)C34 (stereo not drawn) | electrical conductivity | water | 293.15 K |  | entropic term −TΔS of aggregation | -7.56 kcal/mol |
| CC(C)[C@H](NC(=O)CNC(=O)[C@H](CCC(N)=O)NC(=O)[C@H](C)N)C(=O)O |  | human | single dose, 30 mg/kg, unlikely related or unrelated |  | unrelated adverse events | 16.7% |
| O=C(NCCCCCCn1ccc2ccccc21)Oc1ccccc1 |  | porcine plasma | 20 µM, 30 min |  | parent remaining | 68 ± 8% |
| CCc1cnc(NC(=O)c2cc(S(=O)(=O)N3CCOCC3)ccc2N(C)C2CCCC2)s1 |  | mouse, HCC827-GR xenograft | ip, 10 mg/kg |  | tolerability | not toxic |
| CC1=CC=c2ccc3c4c2[N]1[Re](=[C]=O)(=[C]=O)(=[C]=O)([C]#[N+]c1c(C)cccc1C)[N]4C(C)=CC=3.O=S(=O)([O-])C(F)(F)F |  | PBS | 10 µM, air-equilibrated |  | luminescence lifetime | 1.2 µs |
| CC(C)C[C@@H](/C=C/CC(=O)NC1CC(C)(C)N([O])C(C)(C)C1)NC(=O)OC(C)(C)C | metabolic stability | male mouse, liver microsomes | 1 h |  | compound remaining | 15% |
| CC(C)(CCCC/C=C/CCCCCC(C)(C)C(=O)O)C(=O)O |  | beagle dog, plasma | intravenous, 5 mg/kg |  | AUC(0-t) | 534 µg·h/mL |
| CC(C)C[C@H](NC(=O)[C@H](CCCCN)NC(=O)[C@H](CCC(=O)O)NC(=O)[C@H](C)NC(=O)[C@@H](NC(=O)[C@H](CCCCN)NC(=O)[C@H](CC(=O)O)NC(=O)[C@H](Cc1ccc(O)cc1)NC(=O)[C@H](Cc1ccccc1)NC(=O)[C@H](C)NC(=O)[C@H](CCCCN)NC(=O)[C@H](CC(C)C)NC(=O)[C@H](Cc1c[nH]c2ccccc12)NC(=O)[C@@H](N)CC(=O)O)C(C)C)C(=O)N[C@@H](CCCCN)C(=O)N[C@@H](CCC(=O)O)C(=O)N[C@@H](C)C(=O)N[C@@H](Cc1ccccc1)C(=O)N1CCC[C@H]1C(=O)N[C@@H](CC(=O)O)C(=O)N[C@@H](Cc1c[nH]c2ccccc12)C(=O)N[C@@H](C)C(=O)N[C@@H](CCCCN)C(=O)N[C@@H](C)C(=O)N[C@@H](C)C(=O)N[C@@H](Cc1ccc(O)cc1)C(=O)N[C@@H](CC(=O)O)C(=O)N[C@@H](CCCCN)C(=O)N[C@@H](C)C(=O)N[C@@H](C)C(=O)N[C@@H](CCC(=O)O)C(=O)N[C@@H](CCCCN)C(=O)N[C@@H](C)C(=O)N[C@@H](CCCCN)C(=O)N[C@@H](CCC(=O)O)C(=O)N[C@@H](C)C(=O)N[C@@H](C)C(=O)O |  | cynomolgus monkey male, plasma | intravenous infusion, 25 mg/kg every other day, day 27 |  | half-life | 4.7 h |
| CCCC[C@@H]1NC(=O)[C@@H](CC(C)C)NC(=O)[C@H](CCCCN)NC(=O)[C@@H](CO)NC(=O)[C@H](Cc2c[nH]cn2)NC(=O)[C@@H](Cc2c[nH]c3ccccc23)NC1=O |  | wild-type mouse | 10 mg/kg repeated |  | toxicity | not toxic |
| COC1CC(OC2CCC3(C)C(CCC45OC46CCC(C(C)=O)C6(C)C(OC(C)=O)C(OC(=O)c4ccccc4)C35)C2)OC(C)C1OC1OC(C)C(O)C(OC)C1O (stereo not drawn) |  | Caco-2 | 10 µM |  | efflux ratio | 1.4 |
| CC(C)(C)c1ccc(COc2cc3c(=O)c(C(=O)NCCNCCO)cn(Cc4ccccc4)c3cc2Cl)cc1 | metabolic stability | male rat, liver microsomes | 1 µM |  | microsomal CLint | < 11.6 µL/min/mg |
| COC(=O)C[C@](O)(CCCC(C)(C)OC(C)=O)C(=O)O[C@@H]1C(OC)=C[C@]23CCCN2CCc2cc4c(cc2[C@H]13)OCO4 |  | CD1 mouse, kidney | subcutaneous, 1 mg/kg, 24 h, below quantification limit 1.00 ng/mL |  | tissue concentration | not detected |
| CCCC(=O)OC1O[C@@H]2O[C@@]3(C)CC[C@H]4[C@H](C)CCC([C@H]1C)[C@@]24OO3 (stereo partly drawn) |  | Tg(fli1:EGFP) zebrafish embryos | 50 µg/mL, up to 48 hpf |  | dead embryos | 5 count |
| CC(C)[C@H](NC(=O)[C@H](Cc1c[nH]c2ccccc12)NC(=O)[C@H](Cc1ccccc1)NC(=O)[C@@H](NC(=O)[C@@H](NC(=O)[C@H](CCCCN)NC(=O)[C@@H](N)CCCCN)C(C)C)C(C)C)C(=O)N[C@@H](CCCCN)C(=O)N[C@@H](Cc1ccccc1)C(=O)N[C@@H](CCCCN)C(N)=O | ELISA, measured: IL-13 | mouse, blood | intravenous, 500 µg/kg, 5 days |  | cytokine level | 62 ± 4.31 pg/mL |
| [11CH3]n1c(=O)n(CCCO)c(=O)c2c1nc(Oc1cccc(OC(F)(F)F)c1)n2Cc1ccc(Cl)cc1 | ex vivo biodistribution | Sprague Dawley rat, blood | 60 min post injection |  | tracer uptake | 0.16 ± 0.01 %ID/g |
| CCCCCCC[C@@H](CC(=O)O)OC(=O)C[C@@H](CCCCCCC)O[C@@H]1O[C@@H](C)[C@H](O)[C@@H](O)[C@H]1O |  | zebrafish embryos | 640 µM, 6 to 120 hpf |  | mortality | 100% |

Excerpt of the above:
| SMILES | test | system | setting | scale | endpoint | result |
| --- | --- | --- | --- | --- | --- | --- |
| CCCC[C@@H]1NC(=O)[C@@H](CC(C)C)NC(=O)[C@H](CCCCN)NC(=O)[C@@H](CO)NC(=O)[C@H](Cc2c[nH]cn2)NC(=O)[C@@H](Cc2c[nH]c3ccccc23)NC1=O |  | wild-type mouse | 10 mg/kg repeated |  | toxicity | not toxic |
| CC(C)(CCCC/C=C/CCCCCC(C)(C)C(=O)O)C(=O)O |  | beagle dog, plasma | intravenous, 5 mg/kg |  | AUC(0-t) | 534 µg·h/mL |
| CC(C)[C@H](NC(=O)[C@H](Cc1c[nH]c2ccccc12)NC(=O)[C@H](Cc1ccccc1)NC(=O)[C@@H](NC(=O)[C@@H](NC(=O)[C@H](CCCCN)NC(=O)[C@@H](N)CCCCN)C(C)C)C(C)C)C(=O)N[C@@H](CCCCN)C(=O)N[C@@H](Cc1ccccc1)C(=O)N[C@@H](CCCCN)C(N)=O | ELISA, measured: IL-13 | mouse, blood | intravenous, 500 µg/kg, 5 days |  | cytokine level | 62 ± 4.31 pg/mL |
